Experimental data of several laboratories.
Every numbered part comes from another study and shows a few of its results, in no order.

Sample 1
Target: Prothrombin, mature alpha-thrombin (F2, Homo sapiens, UniProt P00734)
Method: aptamer microarray, sandwich
Form: DNA with 2'F-ANA
Matrix: in vitro
Concentration: 200 nM
Setting: whole 15-mer aptamer, many near background
Together with: Cy3 exosite-II aptamer, 400 nM
Reading: higher = stronger binding
Oligonucleotide	mean fluorescence intensity
GGTTGGTGTGGTTGG (2'F-ANA at 2 5 6 7 8 10 11 12 14 15)	189 a.u.
GGTTGGTGTGGTTGG (2'F-ANA at 4 5 6 7 11)	57.9 a.u.
GGTTGGTGTGGTTGG (2'F-ANA at 1 2 3 9 10 11 12)	74.8 a.u.
GGTTGGTGTGGTTGG (2'F-ANA at 1 2 4 7 9 10 11)	48.2 a.u.

Sample 2
Target: Histone acetyltransferase KAT6A, winged helix 1, GST fusion (KAT6A, Homo sapiens, UniProt Q92794, residues 1-85)
Method: protein binding microarray
Form: double-stranded DNA, one strand shown
Matrix: in vitro
Concentration: not given
Setting: 8-mer, flanks averaged, mean of 2 arrays, mostly near background
Reference: not given
Reading: higher = stronger binding
Construct (chain): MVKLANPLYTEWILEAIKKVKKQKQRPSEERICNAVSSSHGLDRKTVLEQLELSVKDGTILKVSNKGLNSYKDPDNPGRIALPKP
Oligonucleotide	E-score
AGCAGTCG	-0.0717
TGGTGCAA	-0.203
TACGCGGA	0.208

Sample 3
Target: Sal-like protein 4, full length isoform B (SALL4, Homo sapiens, UniProt Q9UJQ4-2, residues 1-616)
Method: universal PBM
Form: double-stranded DNA, one strand shown
Matrix: in vitro
Concentration: not given
Setting: 8-mer, flanks averaged, mean of replicates
Reading: higher = stronger binding
Residues (chain): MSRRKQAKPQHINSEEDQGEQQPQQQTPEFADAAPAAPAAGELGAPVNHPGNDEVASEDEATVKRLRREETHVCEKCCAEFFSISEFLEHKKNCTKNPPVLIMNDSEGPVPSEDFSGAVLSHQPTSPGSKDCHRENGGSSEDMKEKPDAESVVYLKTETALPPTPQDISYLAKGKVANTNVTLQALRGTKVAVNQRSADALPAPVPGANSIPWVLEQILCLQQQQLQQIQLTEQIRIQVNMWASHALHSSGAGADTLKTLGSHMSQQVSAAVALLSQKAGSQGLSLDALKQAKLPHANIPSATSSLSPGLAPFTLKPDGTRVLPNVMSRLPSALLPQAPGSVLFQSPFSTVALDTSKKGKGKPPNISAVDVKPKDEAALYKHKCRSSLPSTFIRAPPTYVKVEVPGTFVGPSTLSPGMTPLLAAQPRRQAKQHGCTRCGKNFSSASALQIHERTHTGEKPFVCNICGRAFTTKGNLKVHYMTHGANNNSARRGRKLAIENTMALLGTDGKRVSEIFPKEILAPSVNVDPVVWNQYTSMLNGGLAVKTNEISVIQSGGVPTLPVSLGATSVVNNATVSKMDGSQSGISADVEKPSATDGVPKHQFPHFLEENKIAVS
Oligonucleotide	E-score
GCGTGTTA	0.0994
CTTGGGCC	-0.324
CCAACAGA	-0.0023

Further values, each from its own experiment
Molecule	target	test	test system	setting	how to read	quantity	value
PhoQ, residues 284 288 289 292 302 303 WVSSAF	PhoP, residues 12 14 15 18 19 NNFVT (Escherichia coli, UniProt P23836)	Sort-seq, item: YFP reporter	E. coli	PhoQ-PhoP variant library, together with: 10 µM Mg2+	reference: high Mg2+ state, higher = stronger signaling	fold induction	19.5

Repeated from above (sample 3):
Oligonucleotide	E-score
GCGTGTTA	0.0994
CTTGGGCC	-0.324
